Results collected from several papers.
Numbered parts are unrelated; each lists some results of a single study.

Series 1
Observed: AlphaScreen signal
Technique: AlphaScreen counter screen
Medium: His6 peptide without bromodomain
Tested at: 50 µM
Setting: assay interference check
| Structure (SMILES) | inhibition [%] |
| --- | --- |
| COc1ccc(-c2cc3nccn3c(Nc3ncccc3C(N)=O)n2)cc1OC | 12.6 |
| CCN1C(=CC(C)=O)Sc2ccc(OC)cc21 | 8.6 |
| Nc1ncc(-c2cccnc2)nc1-c1ccc(O)cc1 | 17.6 |

Series 2
Target: TAR DNA-binding protein 43, full length, His tag (TARDBP, Homo sapiens, UniProt Q13148, residues 1-414)
Technique: RNA Bind-n-Seq
Form: RNA
Medium: in vitro
Tested at: 20 nM
Setting: 6-mer, flanks averaged, single round
Added: 150 mM KCl
Baseline: input library
Reading: higher = stronger binding
| Sequence | 6-mer enrichment (R) |
| --- | --- |
| GUUUCC | 0.619 |
| GUAUGC | 1.1 |
| CUGGAG | 1.43 |
| AAAGAC | 0.61 |
| ACCUUC | 0.567 |
| CUAUAG | 0.634 |
| CUAAUA | 0.708 |
| AGGUGU | 1.4 |

Series 3
Target: Beta-2 adrenergic receptor (ADRB2, Homo sapiens, UniProt P07550)
Observed: ligand displacement
Tested at: 10 µM
| Structure (SMILES) | inhibition |
| --- | --- |
| Nc1nc(NCc2ccccc2)nc(-c2ccccc2CO)n1 | 20.7% |
| CC1=C(C#N)C(c2ccc3[nH]nc(C)c3c2)C(C#N)=C(C)N1 | 20.2% |
| COc1ccc2cc(OCC3(C(=O)O)CN(C(=O)c4ccc(F)cc4)C3)ccc2c1 | -17.4% |
| Nc1nc(NCc2ccccc2)nc(-c2cccc(CO)c2)n1 | 18% |
| CCOc1ccc(S(=O)(=O)Nc2ccc(Cl)cc2C#Cc2cnc(C(=O)O)cc2OC)c2ncccc12 | 14.8% |
| CC(=O)Nc1ncc(CN2CCC[C@H](Cc3cc(C)nc(C)c3)C2)s1 | -5.16% |
| CNC(=O)Nc1ccc2c(c1)CC[C@]21OC(=O)N(CC(=O)N(Cc2ccc(F)cc2)[C@@H](C)C(F)(F)F)C1=O | 19% |
| CCC(=NO)C(C)=Cc1ccc(F)c(C)c1 | -1.29% |
| COCCOc1nc(-c2ccc(Cl)nc2)nc2c1CN(C(=O)c1ncn3ccccc13)CC2 | -0.65% |
| Cc1c(NC(=O)c2cc(C(N)=O)nc3cc(F)ccc23)c(C(F)(F)F)nn1Cc1ccc(C#N)cc1 | 21.7% |
| O=C(N[C@H]1CCCCC/C=C\C2C[C@@]2(C(=O)O)NC(=O)[C@@H]2C[C@@H](Oc3ccncc3)CN2C1=O)OC1CCCC1 (stereo partly shown) | 12.8% |

Mixed results
FKH1 DNA-binding domain: Fork head protein homolog 1, DNA-binding domain (FKH1, Saccharomyces cerevisiae, UniProt P40466, residues 243-484)
UniProt P40466, sequence (243-484, looked up): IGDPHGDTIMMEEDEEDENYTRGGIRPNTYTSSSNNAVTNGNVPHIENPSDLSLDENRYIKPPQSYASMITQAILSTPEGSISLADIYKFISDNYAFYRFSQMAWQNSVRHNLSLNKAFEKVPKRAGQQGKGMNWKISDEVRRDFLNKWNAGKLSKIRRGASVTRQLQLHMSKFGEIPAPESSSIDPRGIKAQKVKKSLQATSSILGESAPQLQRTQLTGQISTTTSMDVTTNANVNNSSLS
| Substance | tested on | test | system | setting | scale | measurement | value |
| --- | --- | --- | --- | --- | --- | --- | --- |
| Cc1cc(C)cc(OCC2CNC(=O)O2)c1 (stereo not shown) | Huh-7 | – | – | 10 µM, 24 h | – | viability | 101% |
| CAAAACA | FKH1 DNA-binding domain | SELEX-seq | double-stranded DNA, one strand shown, in vitro | not given, 7-bp core, flanks averaged | baseline: best-binding core, lower = stronger binding | relative binding free energy | 1.48 ddG/RT |
| C=CCc1ccc(O)c(-c2cc(CC=C)ccc2O)c1 | A-375 | – | – | 100 µM, 36 h | – | viability | 0.387% |
| CC[C@H]1OC(=O)[C@H](C)[C@@H](O[C@H]2C[C@@](C)(OC)[C@@H](O)[C@H](C)O2)[C@H](C)[C@@H](O[C@@H]2O[C@H](C)C[C@H](N(C)C)[C@H]2O)[C@](C)(O)C[C@@H](C)[C@@H]2N[C@@H](COCCOC)O[C@H]([C@H]2C)[C@]1(C)O | mouse MPNST tumor cells | high-content nuclear imaging, measured: cell number | – | 10 µM, 12 h, mean of 2 replicates | baseline: plate mean, higher = more cells | nuclei count | 1.77 z-score |
| AGAAACA | FKH1 DNA-binding domain | SELEX-seq | double-stranded DNA, one strand shown, in vitro | not given, 7-bp core, flanks averaged | baseline: best-binding core, lower = stronger binding | relative binding free energy | 2.58 ddG/RT |
| O=C(Nc1ncc([N+](=O)[O-])s1)c1ccccc1O | A-375 | – | – | 100 µM, 36 h | – | viability | 31.1% |

For quick reference, copied from above (series 3):
| Structure (SMILES) | inhibition |
| --- | --- |
| CNC(=O)Nc1ccc2c(c1)CC[C@]21OC(=O)N(CC(=O)N(Cc2ccc(F)cc2)[C@@H](C)C(F)(F)F)C1=O | 19% |
| Nc1nc(NCc2ccccc2)nc(-c2cccc(CO)c2)n1 | 18% |
| Cc1c(NC(=O)c2cc(C(N)=O)nc3cc(F)ccc23)c(C(F)(F)F)nn1Cc1ccc(C#N)cc1 | 21.7% |
| O=C(N[C@H]1CCCCC/C=C\C2C[C@@]2(C(=O)O)NC(=O)[C@@H]2C[C@@H](Oc3ccncc3)CN2C1=O)OC1CCCC1 (stereo partly shown) | 12.8% |
